Measurements from different studies.
Numbered parts are unrelated; each lists some results of a single study. “And” joins repeats or separate records; there may be more than shown.

Study 1
Cell line: mouse MPNST tumor cells
Method: high-content immunofluorescence imaging
Measured: nuclear SOX9
Tested at: 10 µM
Time: 12 h
Setting: mean of 2 replicates
Relative to: DMSO control
Reading: higher = more nuclear SOX9
Structure (SMILES)	nuclear SOX9 intensity
COc1ccc(C(=O)N2CCCC2=O)cc1	91.2 % of DMSO and 94.3 % of DMSO
CC(C)[N+](C)(CCC(C(N)=O)(c1ccccc1)c1ccccc1)C(C)C	90.4 % of DMSO
NCCCCCNC1(c2ccccc2)CCCCC1	168 % of DMSO
CC[C@@]1([C@@H]2O[C@@H]([C@H]3O[C@@](O)(CO)[C@H](C)C[C@@H]3C)C[C@@H]2C)CC[C@H]([C@]2(C)CC[C@]3(C[C@H](O)[C@@H](C)[C@@H]([C@@H](C)[C@@H](OC)[C@H](C)C(=O)O)O3)O2)O1	112 % of DMSO

Study 2
Target: Leukocyte tyrosine kinase receptor (LTK, Homo sapiens, UniProt P29376)
UniProt P29376, sequence (whole entry, looked up): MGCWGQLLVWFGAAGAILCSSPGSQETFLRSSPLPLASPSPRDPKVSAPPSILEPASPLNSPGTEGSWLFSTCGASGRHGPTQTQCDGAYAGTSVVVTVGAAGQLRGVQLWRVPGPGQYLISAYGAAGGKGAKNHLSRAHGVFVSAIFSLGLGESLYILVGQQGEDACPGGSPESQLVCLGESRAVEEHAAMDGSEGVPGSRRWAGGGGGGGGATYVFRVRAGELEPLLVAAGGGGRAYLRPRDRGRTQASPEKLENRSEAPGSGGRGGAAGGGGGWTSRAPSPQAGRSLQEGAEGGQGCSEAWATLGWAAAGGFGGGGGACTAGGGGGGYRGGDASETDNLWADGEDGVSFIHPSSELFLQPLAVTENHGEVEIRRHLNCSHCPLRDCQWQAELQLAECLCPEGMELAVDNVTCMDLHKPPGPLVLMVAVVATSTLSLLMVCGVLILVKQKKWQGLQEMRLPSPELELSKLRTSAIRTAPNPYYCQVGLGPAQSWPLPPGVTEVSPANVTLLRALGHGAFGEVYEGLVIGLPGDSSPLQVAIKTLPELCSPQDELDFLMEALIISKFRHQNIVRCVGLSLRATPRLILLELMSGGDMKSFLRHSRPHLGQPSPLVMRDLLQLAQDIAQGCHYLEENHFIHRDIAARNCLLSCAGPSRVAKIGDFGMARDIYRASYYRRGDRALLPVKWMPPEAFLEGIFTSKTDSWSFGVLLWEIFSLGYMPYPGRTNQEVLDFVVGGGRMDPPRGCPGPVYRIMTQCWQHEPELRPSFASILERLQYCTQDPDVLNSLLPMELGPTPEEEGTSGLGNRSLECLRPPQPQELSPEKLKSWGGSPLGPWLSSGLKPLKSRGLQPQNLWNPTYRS
Observed: enzyme activity
Mode: inhibitor
Method: radiometric
Tested at: 0.5 µM
SMILES	remaining activity [%]
Cc1nc2cc3nc(-c4cccs4)cnc3cc2n1C	95.2
c1ccc(-c2[nH]ncc2-c2ccnc3ccccc23)nc1	92.8
O=C1c2ccccc2-[n+]2ccc3c([nH]c4ccccc43)c21	121
Cc1cc2ncc(-c3ccccc3)nc2cc1C	90.3
c1ccc(-c2cnc(Nc3ccc(OCCN4CCCC4)cc3)s2)cc1	93.8
O=C(Nc1cccc(Nc2nccc(Nc3cccc(C(F)(F)F)c3)n2)c1)C1CC1	104
COc1cc(OC)c(C=C2C(O)=Nc3ccccc32)c(OC)c1	95.3
Nc1cccc(-c2cc3c(Oc4cccc(O)c4)ncnc3[nH]2)c1	16.8
Cc1cn(-c2cc(NC(=O)c3ccc(C)c(Nc4nccc(-c5cccnc5)n4)c3)cc(C(F)(F)F)c2)cn1	101
O=C1c2ccccc2-c2n[nH]c3cccc1c23	77.8
CCOc1nc(NC(=O)Cc2cc(OC)ccc2OC)cc(N)c1C#N	97.3
O=C(NC(NC(=S)Nc1ccc(F)c([N+](=O)[O-])c1)C(Cl)(Cl)Cl)C(c1ccccc1)c1ccccc1 (stereo not shown)	91.5
COc1cc2ncnc(Nc3cccc(Cl)c3)c2cc1OC	60.3
O=C1Nc2ccc(Cl)cc2C1=Cc1cc(Cl)c(O)c(Cl)c1	36.9

Study 3
Organism: Sarcocystis neurona
Observed: parasite growth
Tested at: 10 µM
Setting: secondary screen
Structure (SMILES)	inhibition [%]
CN(C)C(=O)Oc1ccc[n+](C)c1.[Br-]	-0.14
O=C(O)CCCc1ccc(N(CCCl)CCCl)cc1	-11.1
CC(C)N(CCC(C(N)=O)(c1ccccc1)c1ccccn1)C(C)C (stereo not shown)	-46.2

Study 4
Target: HLA class I histocompatibility antigen, A alpha chain, allele A*80:01 (Homo sapiens, UniProt P04439)
Observed: peptide-MHC binding
Molecule type: peptide
Reading: direction not given
Molecule	z-score of log IC50
AQSDFMSWV	0.38
FLQQRKPPL	0.38
AQKLATKPV	0.38
ALGGSCHTT	0.38
GGRKLKLTK	0.38
GHMMVIFRL	0.38
DEYGPVFVE	0.38
DMYFCHFYK	0.38

Further values, each from its own experiment
CAMK2A: Calcium/calmodulin-dependent protein kinase type II subunit alpha (CAMK2A, Homo sapiens, UniProt Q9UQM7)
UniProt Q9UQM7, sequence (whole entry, looked up): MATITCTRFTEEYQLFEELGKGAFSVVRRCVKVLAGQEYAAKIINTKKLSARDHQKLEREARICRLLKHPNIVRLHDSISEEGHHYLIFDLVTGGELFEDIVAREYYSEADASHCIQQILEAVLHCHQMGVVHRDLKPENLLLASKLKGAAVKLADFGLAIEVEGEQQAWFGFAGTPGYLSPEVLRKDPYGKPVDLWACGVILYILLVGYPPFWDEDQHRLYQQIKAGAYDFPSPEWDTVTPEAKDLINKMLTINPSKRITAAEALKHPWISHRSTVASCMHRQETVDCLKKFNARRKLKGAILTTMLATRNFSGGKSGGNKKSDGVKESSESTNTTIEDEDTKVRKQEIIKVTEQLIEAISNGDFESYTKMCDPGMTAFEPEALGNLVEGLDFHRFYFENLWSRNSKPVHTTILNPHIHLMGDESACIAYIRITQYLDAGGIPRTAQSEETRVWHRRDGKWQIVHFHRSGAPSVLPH
SMILES	tested on	assay	system	conditions	quantity	result
N[C@@H](Cc1cc(I)c(Oc2cc(I)c(OS(=O)(=O)O)c(I)c2)c(I)c1)C(=O)O	CAMK2A	enzyme activity, inhibitor		10 µM	inhibition	12%
CNC(=O)c1cc(C(=O)NC2CC2)cn(Cc2ccccc2)c1=O	Beta-2 adrenergic receptor (ADRB2, Homo sapiens, UniProt P07550)	binding, radioligand binding		10 µM	inhibition	16.5%
Cc1c([C@H](C)[C@@H]2NC[C@@H](C)C[C@H]2O)ccc2c1C[C@H]1[C@H]2CC=C2C[C@@H](O)CC[C@@]21C	CAMK2A	enzyme activity, inhibitor		10 µM	inhibition	-31%
CC(C)n1cnc(-c2ccc(F)cc2)c1-c1ncc(C(=O)Nc2ccc(N3CCN(C)CC3)cc2)[nH]1			human, idiopathic pulmonary fibrosis	30 mg twice daily, trial, with standard of care	serious AEs resulting in death	0%
O=C1C=C2C=C[C@@H]3C[C@@]2(O1)[C@H]1CCCCN31	CAMK2A	enzyme activity, inhibitor		10 µM	inhibition	-3%

Repeated from above (study 1):
Structure (SMILES)	nuclear SOX9 intensity
NCCCCCNC1(c2ccccc2)CCCCC1	168 % of DMSO
CC(C)[N+](C)(CCC(C(N)=O)(c1ccccc1)c1ccccc1)C(C)C	90.4 % of DMSO
COc1ccc(C(=O)N2CCCC2=O)cc1	91.2 % of DMSO and 94.3 % of DMSO
CC[C@@]1([C@@H]2O[C@@H]([C@H]3O[C@@](O)(CO)[C@H](C)C[C@@H]3C)C[C@@H]2C)CC[C@H]([C@]2(C)CC[C@]3(C[C@H](O)[C@@H](C)[C@@H]([C@@H](C)[C@@H](OC)[C@H](C)C(=O)O)O3)O2)O1	112 % of DMSO
